Measurements of several laboratories.
Each numbered part is a random draw from the data of one study; scales do not carry over between parts. “And” joins repeats or separate records; there may be more than shown.
Sequence of UniProt Q14680 (whole entry, looked up): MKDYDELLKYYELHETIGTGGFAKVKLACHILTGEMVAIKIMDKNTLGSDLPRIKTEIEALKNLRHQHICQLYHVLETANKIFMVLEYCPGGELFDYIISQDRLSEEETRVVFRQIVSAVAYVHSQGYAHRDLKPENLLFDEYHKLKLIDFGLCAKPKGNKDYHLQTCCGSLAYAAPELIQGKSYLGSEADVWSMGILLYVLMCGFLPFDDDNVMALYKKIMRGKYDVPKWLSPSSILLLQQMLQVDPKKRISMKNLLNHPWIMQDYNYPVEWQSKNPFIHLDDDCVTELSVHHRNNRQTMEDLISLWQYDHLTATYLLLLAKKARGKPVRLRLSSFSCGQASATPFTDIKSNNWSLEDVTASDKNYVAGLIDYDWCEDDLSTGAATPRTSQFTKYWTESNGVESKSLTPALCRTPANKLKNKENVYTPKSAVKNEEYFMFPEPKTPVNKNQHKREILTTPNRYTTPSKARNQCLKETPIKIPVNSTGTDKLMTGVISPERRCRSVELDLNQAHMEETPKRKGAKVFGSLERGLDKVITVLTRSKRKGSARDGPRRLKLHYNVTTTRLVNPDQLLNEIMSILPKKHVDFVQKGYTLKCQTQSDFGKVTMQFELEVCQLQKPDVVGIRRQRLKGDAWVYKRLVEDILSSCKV

Block 1
Target: Prothrombin, mature alpha-thrombin (F2, Homo sapiens, UniProt P00734)
Method: aptamer microarray, sandwich
Molecule type: DNA with 2'F-ANA
Sample: in vitro
Concentration: 200 nM
Notes: whole 15-mer aptamer, many near background
With: Cy3 exosite-II aptamer, 400 nM
Reading: higher = stronger binding
Sequence: GGTTGGTGTGGTTGG
Modification	mean fluorescence intensity
2'F-ANA at 1 2 3 5 7 8 9 11 12 14 15	47.4 a.u.
2'F-ANA at 1 3 9 11 12 14 15	102 a.u.
2'F-ANA at 3 6 8 10 11 12	460 a.u.
2'F-ANA at 1 2 4 5 6 7 11 12 14 15	50.4 a.u.
2'F-ANA at 1 2 4 5 6 8 9 10 13 15	47.6 a.u.
2'F-ANA at 1 2 4 6 7 9 11	89 a.u.
2'F-ANA at 4 11 13 14 15	76.7 a.u.
2'F-ANA at 6 7 10 11 12 15	178 a.u.

Block 2
Target: TAR DNA-binding protein 43, full length, His tag (TARDBP, Homo sapiens, UniProt Q13148, residues 1-414)
Method: RNA Bind-n-Seq
Molecule type: RNA
Sample: in vitro
Concentration: 20 nM
Notes: 6-mer, flanks averaged, single round
With: 150 mM LiCl
Baseline: input library
Reading: higher = stronger binding
Sequence	6-mer enrichment (R)
GUGUUG	1.68
ACGCGG	0.942
AAGCAA	0.848
AAAAAC	0.905
UAAGGU	0.982
GAACGC	0.86
CAGACU	0.811
GGAUAG	1.01

Other studies, line by line
SMILES	target or system	assay	setting	scale	quantity	value
O=C(Nc1cccc(Nc2nccc(Nc3cccc(C(F)(F)F)c3)n2)c1)C1CC1	MELK (Homo sapiens, UniProt Q14680)	enzyme activity, inhibitor	0.5 µM	baseline: control	remaining activity	101%
Ic1ccc(Nc2nc(NCCN3CCOCC3)nc(N3CCOCC3)n2)cc1	Gaucher fibroblasts	qPCR, refers to: GBA1 mRNA	1 µM, unit not given	baseline: vehicle	mRNA level	0.684 and 1.58 and 1.06 and 1.12

Repeated from above (block 2):
Sequence	6-mer enrichment (R)
GAACGC	0.86
CAGACU	0.811
GGAUAG	1.01
